Results pooled from the literature.
Every numbered part comes from another study and shows a few of its results, in no order. “And” joins repeats or separate records; there may be more than shown.

Sample 1 — effect on: binding; method: radioligand binding; tested at: 10 µM; endpoint: inhibition
Target: D(1B) dopamine receptor (DRD5, Homo sapiens, UniProt P21918)
O=C(Nc1cccnn1)N1CC(CC=Cc2cncc(Oc3ccc(C(F)(F)F)cn3)n2)C1: 4.5%
CN(C)C(=O)Cn1cc(-c2nc([C@@](C)(c3ccc(-c4cnc(N)nc4)cc3)C3CC3)no2)cn1: 9.24%
CCOC(=O)c1cc2cc(-c3cc(C(=O)NCc4ccc(C(=O)O)cc4)nn3C)ccc2[nH]1: 59.6%
Cc1nc(C2CCN(C(=O)c3ccc(OC(F)(F)F)cc3N)CC2)c2ncc(N3CCN(C)CC3)cc2n1: 12.4%
COCc1nc2cnc3cc(-c4c(C)noc4C)c(OC[C@H]4CCNC4)cc3c2n1[C@H](C)c1ccccc1: 31.7%
CC(C)CC(=O)N1CCc2nc(-c3ccc(Br)cc3)nc(N(C)Cc3ccccc3)c2C1: 19.4%
C[C@H](NC(=O)c1cnc2n1[C@](C)(Cc1ccc(C#N)cc1)C(=O)N2c1cc(Cl)c(F)c(Cl)c1)C(=O)NC1(c2ccccn2)CC1: 14%
O=C(Nc1cccnn1)N1CCC(=Cc2cccc(Oc3ccc(C(F)(F)F)cn3)c2)CC1: 29.3%
Cc1nc(N2CC[C@@H](O)C2)ncc1-c1cc(C(F)(F)F)cc2[nH]ncc12: -11.9%
C[C@@H]1CN(c2cc(-c3nn(C)c4ccc(OC5(C)CC5)cc34)ncn2)C[C@H](C)O1: 3.61%
COCCc1ccc(-c2c(C)nc3c(N4CCOCC4)ccnn23)cn1: 25.3%

Sample 2 — effect on: peptide-MHC binding; molecule type: peptide; tested at: concentration not given; endpoint: binding
Target: HLA class I histocompatibility antigen, A alpha chain, allele A*25:01 (Homo sapiens, UniProt P04439)
NTAINFFLY: inactive
YNAKRIETV: inactive
TRAPAPFPL: inactive
MSQMPPHPY: inactive
AMPKTIYEL: inactive
KSRQGDTKV: inactive
LARFPCNVI: inactive
FLLPILSQIYT: inactive

Other studies, line by line
ADRB1: Beta-1 adrenergic receptor (ADRB1, Homo sapiens, UniProt P08588)
UniProt P08588, sequence (whole entry, looked up): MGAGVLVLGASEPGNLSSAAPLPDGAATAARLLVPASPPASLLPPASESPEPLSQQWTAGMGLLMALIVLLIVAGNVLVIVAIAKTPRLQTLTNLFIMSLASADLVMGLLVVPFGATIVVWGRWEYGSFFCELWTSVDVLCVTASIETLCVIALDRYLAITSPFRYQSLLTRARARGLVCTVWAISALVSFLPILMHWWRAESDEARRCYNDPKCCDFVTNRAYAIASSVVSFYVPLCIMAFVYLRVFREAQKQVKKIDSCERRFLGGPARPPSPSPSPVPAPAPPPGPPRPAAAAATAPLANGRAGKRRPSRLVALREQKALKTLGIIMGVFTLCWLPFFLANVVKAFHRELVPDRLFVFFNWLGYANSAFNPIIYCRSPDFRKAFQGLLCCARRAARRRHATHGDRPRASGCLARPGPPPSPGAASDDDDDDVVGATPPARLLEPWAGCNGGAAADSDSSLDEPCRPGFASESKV
CN1C[C@H](C(=O)N[C@]2(C)O[C@@]3(O)[C@@H]4CCCN4C(=O)[C@H](Cc4ccccc4)N3C2=O)C[C@@H]2c3cccc4[nH]cc(c34)C[C@H]21 — EC50 (ADRB1): 8.33 µM
CC(C)(C)c1cnc(CSc2cnc(NC(=O)C3CCN(CCCCCSc4cccc5c4CN(C4CCC(=O)NC4=O)C5=O)CC3)s2)o1 (stereo not shown) — viability (HEK293T; trypan blue exclusion; 50 nM, 24 h): 97.4% and 98% and 94.3%
CC(Cc1ccccc1)NCCC(c1ccccc1)c1ccccc1 (stereo not shown) — EC50 (ADRB1): 5.26 µM

For quick reference, copied from above (sample 2):
AMPKTIYEL: inactive
KSRQGDTKV: inactive
LARFPCNVI: inactive
